Published values collected from several papers.
Protocols differ between the studies behind these lines. Numbers after ± are the reported error.

Compound | tested on | assay | test system | setting | how to read | quantity | result
CC[C@H](C)[C@H](NC(=O)[C@H](CO)NC(=O)[C@H](CCCNC(=N)N)NC(C)=O)C(=O)N[C@H]1CSSC[C@@H](C(=O)N[C@H](C(N)=O)[C@@H](C)O)NC(=O)[C@H](CCCNC(=N)N)NC(=O)[C@H](Cc2c[nH]cn2)NC(=O)[C@H](C)NC(=O)CNC(=O)[C@H](Cc2c[nH]c3ccccc23)NC(=O)[C@H](CC(=O)O)NC(=O)[C@H](CCC(N)=O)NC(=O)[C@H](Cc2ccc(O)cc2)NC(=O)[C@H](C(C)C)NC1=O |  | isocratic RP-HPLC, C18 | 32% acetonitrile, phosphate pH 7.4, 1% TFA | 25 °C |  | log retention factor | -0.509
COc1ccc2c3c1O[C@H]1[C@@H](O)C=C[C@@]4(O)[C@@H](C2)N(C)CC[C@]314 |  | potentiometric titration | methanol/water, extrapolated to water |  |  | log K | 9.21
Clc1ccc(-c2cc(Cl)c(Cl)c(Cl)c2)cc1Cl |  |  | fresh water | 20 °C, SSP sampler, 100 µm |  | log K(PDMS-water) | 5.81 ± 0.17
CN1CC[C@]23c4c5ccc(O)c4O[C@H]2[C@@H](O)CC[C@H]3[C@H]1C5 |  |  |  | phenolate protonated |  | log k amino protonation | 8.98
Nc1cnn(-c2ccccc2)c(=O)c1Cl |  | SPME sorption isotherm | PBS |  |  | log Freundlich coefficient | 1.18
c1ccc2c(c1)-c1ccc3ccc4cccc5cc-2c1c3c45 |  |  | fresh water | 20 °C, S100 sampler, 100 µm |  | log K(PDMS-water) | 5.57 ± 0.05
Oc1ccc(C(c2ccc(O)cc2)(C(F)(F)F)C(F)(F)F)cc1 |  |  | octanol/water |  |  | log D octanol/water | 4.47
c1ccc2cc3c(cc2c1)-c1cccc2cccc-3c12 |  |  | fresh water | 12 (unit not given), 20 °C, SSP sampler, 100 µm |  | log K(PDMS-water) | 5.17 ± 0.05
CC[C@H](C)[C@H](NC(=O)[C@H](CCCNC(=N)N)NC(=O)[C@H](CCC(=O)O)NC(C)=O)C(=O)N[C@H]1CSSC[C@@H](C(=O)N[C@H](C(N)=O)[C@@H](C)O)NC(=O)[C@H](CCCNC(=N)N)NC(=O)[C@H](Cc2c[nH]cn2)NC(=O)[C@H](Cc2cccc3ccccc23)NC(=O)CNC(=O)[C@H](Cc2c[nH]c3ccccc23)NC(=O)[C@H](CC(=O)O)NC(=O)[C@H](CCC(N)=O)NC(=O)[C@H](Cc2cccc3ccccc23)NC(=O)[C@H](C(C)C)NC1=O |  | isocratic RP-HPLC | C18 column | pH 7.4, 25 °C, elution method 2 | higher = more lipophilic | log retention factor | 0.514
Clc1cc(Cl)c(-c2c(Cl)c(Cl)cc(Cl)c2Cl)cc1Cl |  |  | fresh water | 20 °C, S30-1 sampler, 30 µm |  | log K(PDMS-water) | 6.75 ± 0.07
CC[C@H](C)[C@H](NC(C)=O)C(=O)N[C@H]1CSSC[C@@H](C(=O)N[C@H](C(N)=O)[C@@H](C)O)NC(=O)[C@H](CCCNC(=N)N)NC(=O)[C@H](Cc2cnc[nH]2)NC(=O)[C@H](C)NC(=O)CNC(=O)[C@H](Cc2c[nH]c3ccccc23)NC(=O)[C@H](CC(=O)O)NC(=O)[C@H](CCC(N)=O)NC(=O)[C@H](Cc2c[nH]c3ccccc23)NC(=O)[C@H](C(C)C)NC1=O |  | isocratic RP-HPLC | C18 column | pH 7.4, 25 °C, elution method 2 | higher = more lipophilic | log retention factor | -0.018
COc1cccc2c1[n+]([O-])c1cccc(OC(=O)N3CCN(C)CC3)c1[n+]2[O-] |  | PAMPA | artificial membrane in PBS | 50 µM, 5 h |  | log effective permeability | -5.74
CC[C@H](C)[C@H](NC(C)=O)C(=O)N[C@H]1CSSC[C@@H](C(=O)N[C@H](C(N)=O)[C@@H](C)O)NC(=O)[C@H](CCCNC(=N)N)NC(=O)[C@H](Cc2cnc[nH]2)NC(=O)[C@H](Cc2cccc3ccccc23)NC(=O)CNC(=O)[C@H](Cc2c[nH]c3ccccc23)NC(=O)[C@H](CC(=O)O)NC(=O)[C@H](CCC(N)=O)NC(=O)[C@H](Cc2cn(C)c3ccccc23)NC(=O)[C@H](C(C)C)NC1=O |  | isocratic RP-HPLC | C18 column | pH 7.4, 25 °C, elution method 2 | higher = more lipophilic | log retention factor | 1.01
CNC(=O)Oc1cc(C)c(SC)c(C)c1 |  | SPME sorption isotherm | PBS |  |  | log Freundlich coefficient | 2.7
Clc1cc(Cl)c(-c2ccc(Cl)c(Cl)c2Cl)cc1Cl |  |  | fresh water | 20 °C, SSP sampler, 100 µm |  | log K(PDMS-water) | 6.36 ± 0.04
Cc1cc2c(cc1C)[n+]([O-])c1c(OC(=O)N3CCCC3)cccc1[n+]2[O-] |  | PAMPA | artificial membrane in PBS | 50 µM, 5 h |  | log effective permeability | -4.85
CN1CC[C@]23c4c5ccc(O)c4O[C@H]2[C@@H](O)CC[C@@]3(O)[C@H]1C5 |  |  |  |  |  | log tautomerization constant | 0.65
CC[C@H](C)[C@H](NC(=O)[C@H](CO)NC(=O)[C@H](CCCNC(=N)N)NC(C)=O)C(=O)N[C@H]1CSSC[C@@H](C(=O)N[C@H](C(N)=O)[C@@H](C)O)NC(=O)[C@H](CCCNC(=N)N)NC(=O)[C@H](Cc2c[nH]cn2)NC(=O)[C@H](Cc2cccc3ccccc23)NC(=O)CNC(=O)[C@H](Cc2c[nH]c3ccccc23)NC(=O)[C@H](CC(=O)O)NC(=O)[C@H](CCC(N)=O)NC(=O)[C@H](Cc2c[nH]c3ccccc23)NC(=O)[C@H](C(C)C)NC1=O |  | isocratic RP-HPLC, C18 | 32% acetonitrile, phosphate pH 7.4, 1% TFA | 25 °C |  | log retention factor | 0.417
Cn1c(N)nc2c3cccnc3ccc21 |  | SPME sorption isotherm | PBS |  |  | log Freundlich coefficient | 1.06

Compound | tested on | assay | test system | setting | how to read | quantity | result
Clc1ccc(-c2ccc(Cl)c(Cl)c2)c(Cl)c1 |  |  | fresh water | 20 °C, SSP sampler, 100 µm |  | log K(PDMS-water) | 5.6 ± 0.02
Cc1c(C)[n+]([O-])c2c(OC(=O)N3CCOCC3)cccc2[n+]1[O-] |  | PAMPA | artificial membrane in PBS | 50 µM, 5 h |  | log effective permeability | -4.65
Clc1cc(Cl)cc(-c2cc(Cl)ccc2Cl)c1 |  |  | fresh water | 20 °C, S30-2 sampler, 30 µm |  | log K(PDMS-water) | 5.75 ± 0.01
O=C(Oc1cccc2c1[n+]([O-])c1ccccc1[n+]2[O-])N1CCCC1 |  | PAMPA | artificial membrane in PBS | 50 µM, 5 h |  | log effective permeability | -4.91
C=CC[C@@]1(C)NC(=O)CNC(=O)[C@H](Cc2c[nH]c3ccccc23)NC(=O)[C@H](CC(=O)O)NC(=O)[C@H](CCC(N)=O)NC(=O)[C@H](Cc2c[nH]c3ccccc23)NC(=O)[C@H](C(C)C)NC(=O)[C@@H](NC(=O)[C@@H](NC(C)=O)[C@@H](C)CC)CSSC[C@@H](C(=O)N[C@H](C(N)=O)[C@@H](C)O)NC(=O)[C@H](CCCNC(=N)N)NC(=O)[C@H](Cc2c[nH]cn2)NC1=O |  | isocratic RP-HPLC, C18 | 32% acetonitrile, phosphate pH 7.4, 1% TFA | 25 °C |  | log retention factor | 0.136
Cc1cccc(C)c1N(Cn1cccn1)C(=O)CCl |  | SPME sorption isotherm | PBS |  |  | log Freundlich coefficient | 1.72
NCC(O)C1CCCCCCC1 (centres unmarked) | Plasmodium falciparum |  | 7G8 |  |  | IC50 | 10 µM
[O-][n+]1c2cccc(O)c2[n+]([O-])c2cccc(O)c21 |  | PAMPA | artificial membrane in PBS | 50 µM, 5 h |  | log effective permeability | -5.64
c1cc2ccc3cccc4ccc(c1)c2c34 |  |  | fresh water | 12 (unit not given), 20 °C |  | log K(PDMS-water) | 4.3 ± 0.03
COc1ccnc(C(=O)N[C@H]2COC(=O)[C@H](Cc3ccccc3)[C@@H](OC(=O)C(C)C)[C@H](C)OC2=O)c1OCOC(=O)C(C)C |  |  |  | pH 5, 20 °C |  | log Kow | 4.2
[O-][n+]1c2ccccc2[n+]([O-])c2c(O)cccc21 |  | PAMPA | artificial membrane in PBS | 50 µM, 5 h |  | log effective permeability | -4.74
CN1CC[C@]23c4c5ccc(O)c4O[C@H]2[C@@H](O)C=C[C@@]3(O)[C@H]1C5 |  |  |  |  |  | log k amino protonation | 9.58
O=C1N=c2cc(Cl)c(Cl)cc2=NC1=O | Plasmodium falciparum |  | 3D7 |  |  | IC50 | 2.51 µM
Cc1cc(O)ccc1Cl |  | SPME sorption isotherm | PBS |  |  | log Freundlich coefficient | 1.52
CC(=O)N[C@@H](CC(N)=O)C(=O)N[C@@H](CC(N)=O)C(=O)N[C@@H](CC(C)C)C(=O)N[C@H]1CSSC[C@@H](C(=O)N[C@H](C(N)=O)[C@@H](C)O)NC(=O)[C@H](CCCNC(=N)N)NC(=O)[C@H](Cc2c[nH]cn2)NC(=O)[C@H](Cc2cccc3ccccc23)NC(=O)CNC(=O)[C@H](Cc2c[nH]c3ccccc23)NC(=O)[C@H](CC(=O)O)NC(=O)[C@H](CCC(N)=O)NC(=O)[C@H](Cc2cccc3ccccc23)NC(=O)[C@H](C(C)C)NC1=O |  | isocratic RP-HPLC, C18 | 32% acetonitrile, phosphate pH 7.4, 1% TFA | 25 °C |  | log retention factor | 0.771
COc1cccc2c1[n+]([O-])c1cccc(OC(=O)N(C)C)c1[n+]2[O-] |  | PAMPA | artificial membrane in PBS | 50 µM, 5 h |  | log effective permeability | -5.3
CC[C@H](C)[C@H](NC(C)=O)C(=O)N[C@H]1CSSC[C@@H](C(=O)N[C@H](C(N)=O)[C@@H](C)O)NC(=O)[C@H](CCCNC(=N)N)NC(=O)[C@H](Cc2c[nH]cn2)NC(=O)[C@@](C)(CC)NC(=O)CNC(=O)[C@H](Cc2c[nH]c3ccccc23)NC(=O)[C@H](CC(=O)O)NC(=O)[C@H](CCC(N)=O)NC(=O)[C@H](Cc2c[nH]c3ccccc23)NC(=O)[C@H](C(C)C)NC1=O |  | isocratic RP-HPLC, C18 | 32% acetonitrile, phosphate pH 7.4, 1% TFA | 25 °C |  | log retention factor | 0.117
CN1CC[C@]23c4c5ccc(O)c4O[C@H]2[C@@H](O)C=C[C@H]3[C@H]1C5 |  |  |  |  |  | log k amino protonation | 8.9
Cc1c(C)[n+]([O-])c2c(OC(=O)N3CCN(C)CC3)cccc2[n+]1[O-] |  | PAMPA | artificial membrane in PBS | 50 µM, 5 h |  | log effective permeability | -4.48

Some of these lines once more:
Compound | tested on | assay | test system | setting | how to read | quantity | result
[O-][n+]1c2cccc(O)c2[n+]([O-])c2cccc(O)c21 |  | PAMPA | artificial membrane in PBS | 50 µM, 5 h |  | log effective permeability | -5.64
c1cc2ccc3cccc4ccc(c1)c2c34 |  |  | fresh water | 12 (unit not given), 20 °C |  | log K(PDMS-water) | 4.3 ± 0.03
COc1ccnc(C(=O)N[C@H]2COC(=O)[C@H](Cc3ccccc3)[C@@H](OC(=O)C(C)C)[C@H](C)OC2=O)c1OCOC(=O)C(C)C |  |  |  | pH 5, 20 °C |  | log Kow | 4.2
